Published values gathered from unrelated publications.
Lines come from different studies, so protocols differ. ± gives the spread as reported.

SMILES = CC(=O)c1c(C)cc2cc(O)cc(O[C@@H]3O[C@H](CO)[C@@H](O)[C@H](O)[C@H]3O)c2c1O; tested on = HK-2 co-cultured with HepaRG; assay = MTT; setting = 266.67 µM, 24 h; scale = baseline: untreated control; measurement = cell viability; result = 107 ± 8.07%
SMILES = CC[C@H](CO)N(CCN(N=O)[C@H](CC)CO)N=O; tested on = Salmonella typhimurium; assay = mutagenicity, Ames plate incorporation; test system = TA1535; setting = 500 µg/plate, without S9, methanol; measurement = revertant colonies per plate; result = 20.3 ± 6
SMILES = CCc1cc(C(=O)NC)c2nccc(N3CCc4c(cc(Cn5ccnc5)cc4-c4cn(C)nc4C(F)(F)F)C3=O)c2c1; test system = Sprague Dawley rats; setting = oral, 100 mg/kg once daily, 7 days; measurement = serum LDL level; result = 0.7 ± 0.1 mmol/L
SMILES = CCO[C@H]1CCN(Cc2c(OC)cc(C)c3[nH]ccc23)[C@H](c2ccc(C(=O)O)cc2)C1; test system = PNH patients, active haemolysis; setting = oral, 100 mg, 8 weeks, treatment; measurement = incidence of oropharyngeal pain; result = 0%
SMILES = O=C(O)CCC(=O)O.[2H]C([2H])([2H])Oc1cc(C)c2[nH]ccc2c1CN1CC[C@@H](C2CC2)C[C@H]1c1ccc(C(=O)O)cc1; test system = human, plasma; setting = 100 mg twice daily, day 10, multiple ascending dose, median; measurement = Tmax; result = 2 h
SMILES = Nc1ncn([C@H]2C[C@H](O)[C@@H](CO)O2)c(=O)n1; test system = mouse plasma; setting = 80 ng/mL, -80 °C, three freeze-thaw cycles, with THU; measurement = mean deviation from nominal; result = 12.4%
SMILES = CNCc1ccc(-c2[nH]c3cc(F)cc4c3c2CCNC4=O)cc1; test system = human patients; setting = oral, 600 mg twice daily, grade 1; measurement = neutropenia incidence; result = 0%
SMILES = O=C(Nc1nc2cccc(-c3ccc(CN4CCS(=O)(=O)CC4)cc3)n2n1)C1CC1; assay = item: blood amylase increased; test system = rheumatoid arthritis patients; setting = oral, 30 mg once daily, 4 weeks, any relatedness; measurement = treatment-emergent adverse events; result = 0%
SMILES = O=C1NCCc2nc(OCc3cccc(F)c3)ccc21; assay = item: loss of Righting; test system = Sprague-Dawley rat male; setting = oral, 100 mg/kg, 1 h; scale = direction not given; measurement = Irwin test score; result = 0
SMILES = CCCCCNC(=O)N1CCC(CN(Cc2ccc(Cl)cc2)Cc2ccc([N+](=O)[O-])s2)C1 (stereo not shown); assay = complete blood count; test system = C57BL/6 mice, blood; setting = 100 mg/kg twice daily, 7 days; measurement = mean platelet volume; result = 5.4 ± 0.2 fL
SMILES = COc1c(O[C@@H]2O[C@H](CO)[C@@H](O)[C@H](O)[C@H]2O)cc2c(c1O)C(=O)c1c(cc(C)c(O)c1OC)C2=O; tested on = HK-2 co-cultured with HepaRG; assay = MTT; setting = 33.33 µM, 24 h; scale = baseline: untreated control; measurement = cell viability; result = 94 ± 4.69%
SMILES = CCc1ccc(-c2ccc(-c3cc(F)c(F)c(F)c3)c(F)c2)cc1; test system = rat, fetus; setting = 5000 ng/mL in perfusate, high dose, mixture of 21 LCMs; measurement = fetal accumulation; result = 0.651 ± 0.602 ng/g
SMILES = Cc1ccc(CCC(=O)Nc2nnc(S(N)(=O)=O)s2)cc1; test system = BALB/c mice, male, plasma; setting = oral, 20 mg/kg; measurement = clearance; result = 77.6 mL/min/kg
SMILES = C[Si](C)(C)O[Si](C)(C)C; setting = concentration not given, temperature rise 30 °C; measurement = change in log KAW; result = 1 log units
SMILES = COc1cc2c3c(n(CCCN4CCOCC4)c(=O)c2cc1OC)-c1cc2c(cc1C3=O)OCO2; test system = beagle dog, male, plasma; setting = intravenous infusion, 10 mg/m^2, 1 h infusion, vehicle 1; measurement = Vz; result = 225 ± 18 L/m²
SMILES = C=CCN1CC(=O)N2[C@@H](Cc3ccc(O)cc3F)C(=O)N(Cc3cccc(N4CC(N5CCN(CC)CC5)C4)n3)C[C@@H]2N1C(=O)NCc1ccccc1; assay = item: AST increased; test system = human advanced solid tumours; setting = concentration not given, dose escalation grade ≥3; measurement = treatment-related adverse events; result = 0%
SMILES = Cl.N=C(CC(O)c1cc2c(F)cc(F)cc2c2cc(C(F)(F)F)ccc12)Nc1ccc(Br)cc1 (stereo not shown); assay = equilibrium dialysis; test system = human liver microsomes 0.5 mg/mL; setting = 1 µM, 24 h; measurement = fraction bound; result = 0.993
SMILES = CC[C@H](C)[C@H](NC(=O)[C@H](CCCNC(=N)N)NC(=O)[C@H](CCC(=O)O)NC(C)=O)C(=O)N[C@H]1CSSC[C@@H](C(=O)N[C@H](C(N)=O)[C@@H](C)O)NC(=O)[C@H](CCCNC(=N)N)NC(=O)[C@H](Cc2c[nH]cn2)NC(=O)[C@H](C)NC(=O)CNC(=O)[C@H](Cc2c[nH]c3ccccc23)NC(=O)[C@H](CC(=O)O)NC(=O)[C@H](CCC(N)=O)NC(=O)[C@H](Cc2c[nH]c3ccccc23)NC(=O)[C@H](C(C)C)NC1=O; assay = isocratic RP-HPLC, C18; test system = 32% acetonitrile, phosphate pH 7.4, 1% TFA; setting = 25 °C; measurement = retention factor; result = 0.317 ± 0.02
SMILES = OC[C@H]1O[C@@H](c2ccc(Cl)c(Cc3ccc(O[C@H]4CCOC4)cc3)c2)[C@H](O)[C@@H](O)[C@@H]1O; test system = Japanese type 1 diabetes patients, blood; setting = 25 mg, day 28; scale = baseline: baseline; measurement = change in Calcium; result = -0.1 mg/dL

Excerpt of the above:
SMILES = O=C(Nc1nc2cccc(-c3ccc(CN4CCS(=O)(=O)CC4)cc3)n2n1)C1CC1; assay = item: blood amylase increased; test system = rheumatoid arthritis patients; setting = oral, 30 mg once daily, 4 weeks, any relatedness; measurement = treatment-emergent adverse events; result = 0%
SMILES = O=C1NCCc2nc(OCc3cccc(F)c3)ccc21; assay = item: loss of Righting; test system = Sprague-Dawley rat male; setting = oral, 100 mg/kg, 1 h; scale = direction not given; measurement = Irwin test score; result = 0
SMILES = CCCCCNC(=O)N1CCC(CN(Cc2ccc(Cl)cc2)Cc2ccc([N+](=O)[O-])s2)C1 (stereo not shown); assay = complete blood count; test system = C57BL/6 mice, blood; setting = 100 mg/kg twice daily, 7 days; measurement = mean platelet volume; result = 5.4 ± 0.2 fL
